Results gathered from unrelated publications.
Compare with care: the assays were run in different laboratories. Several values in a cell are separate wells, animals, samples, runs or records. ± gives the spread as reported.

[11CH3]N1CCC(NC(=O)c2cc(-c3c(O)cc(O)cc3Oc3ccc([N+](=O)[O-])cc3)on2)CC1  tissue uptake (NMRI mouse, healthy, kidneys; intravenous, 5.5 MBq, 10 min): 7.8 ± 1.1 %ID
O=C([O-])CN1CCN(CC(=O)[O-])CCN(CC(=O)NCC2CCC(C(=O)NC(Cc3ccc4ccccc4c3)C(=O)NCCCCC(NC(=O)NC(CCC(=O)O)C(=O)O)C(=O)O)CC2)CCN(CC(=O)[O-])CC1.[68Ga+3] (centres unmarked)  tissue uptake (PET/CT; mouse 22Rv1 xenograft, salivary gland; 1 h): 0.47 ± 0.24 %ID/g
COc1ccc(Nc2nc(Nc3ccc(OCCOCC[18F])cc3)ncc2Br)cc1  tissue uptake (ICR mouse, S180 sarcoma-bearing, blood; intravenous, 370 kBq in 100 µL, 30 min): 3.08 ± 0.26 %ID/g
CN(Cc1ccccc1)C(=O)CN1CCN(CC(=O)[O-])CCN(Cc2cccc(C(=O)[O-])n2)CC1.[18F-].[Sc+3]  tissue uptake (BALB/c mouse, large intestine; intravenous, 1 h): 0.07 ± 0.01 %ID/g
N#C[C@@H]1CC(F)(F)CN1C(=O)CNC(=O)c1ccnc2c(NC(=O)CCOCCOCCOCCOCCOCCOCCNC(=O)[C@H](CCCCNC(=O)CN3CCN(CC(=O)[O-])CCN(CC(=O)[O-])CCN(CC(=O)[O-])CC3)NC(=O)CCCc3ccc(I)cc3)cccc12.[177Lu+3]  tissue uptake (mouse, U-87 MG tumour xenograft, brain; 24 h): 0.01 %ID/g
COc1cccc(OC)c1-c1cc(C(=O)NC2(C(=O)O)C3CC4CC(C3)CC2C4)nn1-c1ccc(C(=O)N(C)CCCN(C)C(=O)[C@H](CCCCNC(=O)[C@H](CC(C)C)NC(=O)C2OC2C(=O)O)NC(=O)CN2CCN(CC(=O)[O-])CCN(CC(=O)[O-])CCN(CC(=O)[O-])CC2)cc1C(C)C.[177Lu+3] (mixture of isomers)  tissue uptake (mouse HT-29 xenograft, large intestine; 168 h post injection, biodistribution): 0.09 %ID/g
COc1ccc2c(c1)C(C)(C)C(/C=C/C1=C(Oc3ccc(C(=O)NCCCCOc4cc(CN(Cc5ccccn5)Cc5ccccn5)cc(CN(Cc5ccccn5)Cc5ccccn5)c4)cc3)C(=C/C=C3/N(CCCCS(=O)(=O)[O-])c4ccc(OC)cc4C3(C)C)CCC1)=[N+]2CCCCS(=O)(=O)[O-].O=[N+]([O-])[O-].O=[N+]([O-])[O-].[99Tc+].[C-]#[O+].[C-]#[O+].[C-]#[O+].[Zn+2]  tissue uptake (BALB/c mouse, Staphylococcus aureus myositis, liver; 12 h): 6.88 %ID/g and 20.1 %ID/g and 30.5 %ID/g and 26.8 %ID/g
O=C([O-])CN1CCN(CC(=O)[O-])CCN(Cc2cccc(C(=O)[O-])n2)CC1.[177Lu+3]  tissue uptake (BALB/c mouse, small intestine; intravenous, 1 h): 0.49 ± 0.3 %ID/g
COc1ccc(Nc2nc(Nc3ccc(OCCOCCOCC[18F])cc3)ncc2Br)cc1  tissue uptake (ICR mouse, S180 sarcoma-bearing, blood; intravenous, 370 kBq in 100 µL, 15 min): 4.19 ± 0.33 %ID/g
COc1cccc(OC)c1-c1cc(C(=O)NC2(C(=O)O)C3CC4CC(C3)CC2C4)nn1-c1ccc(C(=O)N(C)CCCN(C)CCCN(C)C(=O)[C@H](CCCCNC(=O)[C@H](CC(C)C)NC(=O)C2OC2C(=O)O)NC(=O)CN2CCN(CC(=O)[O-])CCN(CC(=O)[O-])CCN(CC(=O)[O-])CC2)cc1C(C)C.[177Lu+3] (mixture of isomers)  tissue uptake (mouse, HT-29 xenograft, liver; 24 h post injection): 1.9 %ID/g
CN(Cc1ccccc1)C(=O)CN1CCN(CC(=O)[O-])CCN(CC(=O)[O-])CC1.[18F-].[Sc+3]  tissue uptake (BALB/c mouse, small intestine; intravenous, 1 h): 7.09 ± 5.9 %ID/g
COc1cccc(OC)c1-c1cc(C(=O)NC2(C(=O)O)C3CC4CC(C3)CC2C4)nn1-c1ccc(C(=O)N(C)CCOCCOCCN(C)C(=O)[C@H](CCCCNC(=O)[C@H](CC(C)C)NC(=O)C2OC2C(=O)O)NC(=O)CN2CCN(CC(=O)[O-])CCN(CC(=O)[O-])CCN(CC(=O)[O-])CC2)cc1C(C)C.[177Lu+3] (mixture of isomers)  tissue uptake (mouse, HT-29 xenograft, spleen; 168 h post injection): 0.59 %ID/g
CN(Cc1ccccc1)C(=O)CN1CCN(CC(=O)[O-])CCN(CC(=O)N(C)Cc2ccccc2)CC1.[18F-].[Sc+3]  tissue uptake (BALB/c mouse, small intestine; intravenous, 1 h): 15.9 ± 7.2 %ID/g
O=C(O)CCCOc1ccc([18F])cc1-c1cc(-c2ccccc2C(F)(F)F)n(-c2ccccc2)n1  tissue uptake (mouse, large intestine; intravenous, dose not given, 30 min): 0.49 ± 0.06 %ID/g

Excerpt of the above:
COc1ccc2c(c1)C(C)(C)C(/C=C/C1=C(Oc3ccc(C(=O)NCCCCOc4cc(CN(Cc5ccccn5)Cc5ccccn5)cc(CN(Cc5ccccn5)Cc5ccccn5)c4)cc3)C(=C/C=C3/N(CCCCS(=O)(=O)[O-])c4ccc(OC)cc4C3(C)C)CCC1)=[N+]2CCCCS(=O)(=O)[O-].O=[N+]([O-])[O-].O=[N+]([O-])[O-].[99Tc+].[C-]#[O+].[C-]#[O+].[C-]#[O+].[Zn+2]  tissue uptake (BALB/c mouse, Staphylococcus aureus myositis, liver; 12 h): 6.88 %ID/g and 20.1 %ID/g and 30.5 %ID/g and 26.8 %ID/g
